Measurements from different studies.
Protocols differ between the studies behind these lines.
FLT4: Vascular endothelial growth factor receptor 3 (FLT4, Homo sapiens, UniProt P35916)
Sequence of UniProt P35916 (whole entry, looked up): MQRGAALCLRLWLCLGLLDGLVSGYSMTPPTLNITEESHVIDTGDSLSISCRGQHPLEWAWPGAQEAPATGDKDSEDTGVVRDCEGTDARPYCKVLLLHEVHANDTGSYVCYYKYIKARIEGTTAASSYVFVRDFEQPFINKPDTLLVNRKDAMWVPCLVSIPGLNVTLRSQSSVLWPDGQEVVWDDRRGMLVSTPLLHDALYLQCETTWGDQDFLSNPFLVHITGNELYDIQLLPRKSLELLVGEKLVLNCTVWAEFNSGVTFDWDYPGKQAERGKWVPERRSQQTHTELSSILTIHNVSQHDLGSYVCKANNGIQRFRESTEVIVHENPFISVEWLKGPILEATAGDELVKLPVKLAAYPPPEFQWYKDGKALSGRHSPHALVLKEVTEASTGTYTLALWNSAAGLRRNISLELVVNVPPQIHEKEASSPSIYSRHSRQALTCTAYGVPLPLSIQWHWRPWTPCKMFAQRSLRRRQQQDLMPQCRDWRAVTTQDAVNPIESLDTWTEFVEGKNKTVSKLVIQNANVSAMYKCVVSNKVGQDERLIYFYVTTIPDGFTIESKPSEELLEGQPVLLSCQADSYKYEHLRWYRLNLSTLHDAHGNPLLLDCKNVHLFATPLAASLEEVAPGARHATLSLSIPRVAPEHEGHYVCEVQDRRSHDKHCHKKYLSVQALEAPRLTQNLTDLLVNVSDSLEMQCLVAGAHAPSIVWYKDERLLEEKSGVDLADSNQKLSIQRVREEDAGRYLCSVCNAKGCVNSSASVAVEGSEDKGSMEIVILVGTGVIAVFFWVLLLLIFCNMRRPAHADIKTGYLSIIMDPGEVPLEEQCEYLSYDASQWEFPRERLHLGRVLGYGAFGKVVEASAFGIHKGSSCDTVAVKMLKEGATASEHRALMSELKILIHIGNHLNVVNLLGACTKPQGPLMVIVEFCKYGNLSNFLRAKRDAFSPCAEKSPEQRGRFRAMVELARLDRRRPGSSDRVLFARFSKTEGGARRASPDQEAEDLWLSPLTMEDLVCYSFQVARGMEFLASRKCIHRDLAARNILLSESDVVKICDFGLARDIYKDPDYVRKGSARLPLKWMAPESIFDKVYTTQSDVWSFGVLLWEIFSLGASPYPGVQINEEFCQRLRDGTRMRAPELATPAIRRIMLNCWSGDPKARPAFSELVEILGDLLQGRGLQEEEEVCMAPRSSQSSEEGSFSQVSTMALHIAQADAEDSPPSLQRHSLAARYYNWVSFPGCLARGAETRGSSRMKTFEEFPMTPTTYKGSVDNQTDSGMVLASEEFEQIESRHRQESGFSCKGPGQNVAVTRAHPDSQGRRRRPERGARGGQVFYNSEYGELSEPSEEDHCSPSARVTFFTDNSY
DMPK: Myotonin-protein kinase (DMPK, Homo sapiens, UniProt Q09013)
Sequence of UniProt Q09013 (whole entry, looked up): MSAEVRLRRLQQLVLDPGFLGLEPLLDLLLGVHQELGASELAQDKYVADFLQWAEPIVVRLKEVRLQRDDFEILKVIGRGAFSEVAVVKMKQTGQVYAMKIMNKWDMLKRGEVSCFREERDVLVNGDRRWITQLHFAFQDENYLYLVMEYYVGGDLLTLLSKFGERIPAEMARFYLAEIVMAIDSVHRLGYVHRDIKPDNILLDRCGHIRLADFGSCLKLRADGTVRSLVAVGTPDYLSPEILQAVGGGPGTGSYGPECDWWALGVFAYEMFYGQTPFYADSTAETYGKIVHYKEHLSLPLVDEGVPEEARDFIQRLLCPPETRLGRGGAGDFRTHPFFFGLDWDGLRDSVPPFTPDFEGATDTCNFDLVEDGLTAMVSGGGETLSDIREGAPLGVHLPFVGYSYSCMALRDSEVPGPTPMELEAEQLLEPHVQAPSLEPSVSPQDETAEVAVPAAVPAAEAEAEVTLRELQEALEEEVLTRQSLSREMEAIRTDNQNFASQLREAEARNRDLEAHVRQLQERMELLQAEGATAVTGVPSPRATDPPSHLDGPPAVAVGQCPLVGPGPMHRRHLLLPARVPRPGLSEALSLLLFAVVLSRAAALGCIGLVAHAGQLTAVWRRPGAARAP
Sequence of UniProt P33424 (whole entry, looked up): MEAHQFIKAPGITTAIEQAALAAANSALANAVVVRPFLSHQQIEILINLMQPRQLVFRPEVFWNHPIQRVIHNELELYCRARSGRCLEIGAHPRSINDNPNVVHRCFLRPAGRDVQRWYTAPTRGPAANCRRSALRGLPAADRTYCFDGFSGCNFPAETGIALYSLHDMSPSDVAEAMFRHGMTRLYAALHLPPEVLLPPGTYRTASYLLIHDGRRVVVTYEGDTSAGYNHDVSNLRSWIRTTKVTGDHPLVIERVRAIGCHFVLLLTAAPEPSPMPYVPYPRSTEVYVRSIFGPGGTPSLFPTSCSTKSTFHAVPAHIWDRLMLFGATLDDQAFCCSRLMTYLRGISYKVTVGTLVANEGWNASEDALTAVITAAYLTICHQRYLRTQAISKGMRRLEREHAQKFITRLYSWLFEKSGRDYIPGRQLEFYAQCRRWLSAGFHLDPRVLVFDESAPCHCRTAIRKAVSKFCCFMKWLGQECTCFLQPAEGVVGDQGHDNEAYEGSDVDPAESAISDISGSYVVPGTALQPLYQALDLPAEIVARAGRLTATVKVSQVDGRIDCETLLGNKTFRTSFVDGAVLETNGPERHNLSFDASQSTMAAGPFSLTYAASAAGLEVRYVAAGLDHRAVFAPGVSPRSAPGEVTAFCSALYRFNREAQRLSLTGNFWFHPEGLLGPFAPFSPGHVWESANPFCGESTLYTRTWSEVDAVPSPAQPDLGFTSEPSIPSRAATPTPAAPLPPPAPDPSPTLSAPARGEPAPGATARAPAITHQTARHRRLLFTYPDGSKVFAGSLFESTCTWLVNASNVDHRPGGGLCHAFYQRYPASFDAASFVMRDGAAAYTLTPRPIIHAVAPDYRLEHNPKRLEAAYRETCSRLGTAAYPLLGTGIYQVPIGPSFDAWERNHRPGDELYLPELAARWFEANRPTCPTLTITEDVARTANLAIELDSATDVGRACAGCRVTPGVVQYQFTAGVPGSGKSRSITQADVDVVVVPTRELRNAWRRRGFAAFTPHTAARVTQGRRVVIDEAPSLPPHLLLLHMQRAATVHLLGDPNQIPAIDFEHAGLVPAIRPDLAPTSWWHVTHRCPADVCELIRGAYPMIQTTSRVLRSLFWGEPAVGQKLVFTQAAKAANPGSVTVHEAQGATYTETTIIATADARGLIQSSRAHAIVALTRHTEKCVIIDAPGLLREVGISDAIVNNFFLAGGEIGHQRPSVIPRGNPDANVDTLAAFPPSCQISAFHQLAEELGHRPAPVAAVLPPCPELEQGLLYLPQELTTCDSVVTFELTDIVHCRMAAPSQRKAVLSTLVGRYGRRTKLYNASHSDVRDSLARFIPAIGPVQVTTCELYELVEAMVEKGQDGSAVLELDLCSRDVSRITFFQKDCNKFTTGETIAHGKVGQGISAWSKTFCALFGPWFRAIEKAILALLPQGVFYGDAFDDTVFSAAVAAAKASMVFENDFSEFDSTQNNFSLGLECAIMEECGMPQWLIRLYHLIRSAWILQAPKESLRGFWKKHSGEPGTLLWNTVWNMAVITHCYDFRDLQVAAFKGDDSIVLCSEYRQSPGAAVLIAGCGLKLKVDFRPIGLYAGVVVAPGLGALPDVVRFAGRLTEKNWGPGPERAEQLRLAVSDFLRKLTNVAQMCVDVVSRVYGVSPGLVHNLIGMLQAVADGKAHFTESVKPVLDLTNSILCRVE
Sequence of UniProt Q96S53 (whole entry, looked up): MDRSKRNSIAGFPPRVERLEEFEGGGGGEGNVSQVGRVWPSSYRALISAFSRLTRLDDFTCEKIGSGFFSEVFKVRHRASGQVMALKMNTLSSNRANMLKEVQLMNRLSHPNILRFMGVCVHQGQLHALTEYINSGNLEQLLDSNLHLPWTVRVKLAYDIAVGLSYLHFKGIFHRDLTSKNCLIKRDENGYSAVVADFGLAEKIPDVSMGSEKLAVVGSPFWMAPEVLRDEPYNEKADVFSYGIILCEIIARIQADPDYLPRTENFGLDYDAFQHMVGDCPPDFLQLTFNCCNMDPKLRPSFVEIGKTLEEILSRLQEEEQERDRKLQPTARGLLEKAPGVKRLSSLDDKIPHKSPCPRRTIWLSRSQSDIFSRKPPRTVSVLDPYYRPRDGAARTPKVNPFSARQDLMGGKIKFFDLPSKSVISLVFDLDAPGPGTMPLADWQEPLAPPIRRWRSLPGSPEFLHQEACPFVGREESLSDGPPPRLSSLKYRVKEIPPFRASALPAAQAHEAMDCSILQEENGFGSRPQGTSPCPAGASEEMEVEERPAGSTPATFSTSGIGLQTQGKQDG
Sequence of UniProt P49935 (whole entry, looked up): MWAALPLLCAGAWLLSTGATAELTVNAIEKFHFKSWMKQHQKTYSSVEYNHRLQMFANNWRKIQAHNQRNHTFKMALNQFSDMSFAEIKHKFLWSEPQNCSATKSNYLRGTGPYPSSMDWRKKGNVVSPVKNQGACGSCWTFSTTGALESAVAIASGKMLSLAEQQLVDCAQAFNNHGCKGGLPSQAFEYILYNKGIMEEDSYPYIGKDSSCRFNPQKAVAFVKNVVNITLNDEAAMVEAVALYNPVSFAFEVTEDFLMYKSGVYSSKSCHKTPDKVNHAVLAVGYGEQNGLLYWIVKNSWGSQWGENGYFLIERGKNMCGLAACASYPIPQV
Sequence of UniProt P51817 (whole entry, looked up): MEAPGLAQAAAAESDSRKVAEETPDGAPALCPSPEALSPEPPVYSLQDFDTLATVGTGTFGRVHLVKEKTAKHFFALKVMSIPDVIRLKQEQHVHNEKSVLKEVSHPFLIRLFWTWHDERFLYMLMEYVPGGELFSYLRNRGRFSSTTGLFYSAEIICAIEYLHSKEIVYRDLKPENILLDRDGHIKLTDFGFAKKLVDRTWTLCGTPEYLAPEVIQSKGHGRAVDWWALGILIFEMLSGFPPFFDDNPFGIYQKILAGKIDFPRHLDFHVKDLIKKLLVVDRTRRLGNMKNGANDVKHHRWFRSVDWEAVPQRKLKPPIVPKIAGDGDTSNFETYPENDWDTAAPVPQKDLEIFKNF

| SMILES | target | assay | setting | how to read | remaining activity [%] |
| --- | --- | --- | --- | --- | --- |
| O=C1NC(=O)/C(=C/c2ccc(-c3ccc(F)cc3O)o2)S1 | PRKCZ (Homo sapiens, UniProt Q05513) | enzyme activity | 10 µM | – | 96 |
| NC(=O)c1ncn([C@@H]2O[C@H](CO[P@@](=O)(O)O[P@](=O)(O)OP(=O)(O)O)[C@@H](O)[C@H]2O)n1 | Non-structural polyprotein pORF1, helicase domain (Hepatitis E virus genotype 1, UniProt P33424) | ATPase activity, inhibitor, colorimetric | 56 µM | reference: untreated | 98.8 |
| O=C(NC1CCC1)c1ccc2nc(-c3cccc(NS(=O)(=O)NCCN4CCCCC4)c3)cn2c1 | PRKX (Homo sapiens, UniProt P51817) | enzyme activity | 10 µM | – | 100 |
| c1cnc2ccc(Nc3nc(NC4CC4)c4nc[nH]c4n3)cc2c1 | FLT4 | kinase activity, inhibitor, SelectScreen kinase profiling | 1 µM | reference: control | 75 |
| O=C(O)c1ccc(Nc2ncc3c(n2)-c2ccc(Cl)cc2C(c2c(F)cccc2F)=NC3)cc1 | PAK3(h) | kinase activity | 1 µM | – | 94 |
| COc1cc(-c2cncc3c2CN(C)Cc2cc(N4CCNCC4)ccc2-3)cc(OC)c1OC | DMPK | kinase activity | 1 µM, human enzyme, together with: ATP 10 µM | reference: DMSO control | 100 |
| CNc1ncc2c(/C=C/C(=O)N3CCC(OC)CC3)nn(Cc3cccc(C(F)(F)F)c3)c2n1 | DMPK | kinase activity, inhibitor | 1 µM | reference: untreated control | 97 |
| COc1cc(Nc2ncc3c(n2)-c2ccc(Cl)cc2C(c2c(F)cccc2OC)=NC3)ccc1C(=O)O | ERBB4 | kinase activity | 1 µM | – | 60 |
| Cc1cc(Nc2cc(N3CCN(C)CC3)nc(Sc3ccc(NC(=O)C4CC4)cc3)n2)[nH]n1 | DDR2 (Homo sapiens, UniProt Q16832) | kinase activity, KinaseProfiler | 0.03 µM, species human | reference: control | 95 |
| Cc1cccc(C)c1C(=O)OCC(=O)[C@H](CCCCN)NC(=O)[C@H](CCCNC(=N)N)NC(=O)OCc1ccccc1 | Pro-cathepsin H (Ctsh, Mus musculus, UniProt P49935) | inhibitor | 10 µM, together with: AMC fluorogenic substrate | reference: untreated | 100 |
| C=CC(=O)N1CCC[C@@H](n2nc(-c3ccc(Oc4ccccc4)cc3)c3c(N)ncnc32)C1 | TESK2 (Homo sapiens, UniProt Q96S53) | – | 10 µM | – | 45.8 |
| COc1cc(F)ccc1-c1ncnc(Nc2cccc(C[S@](C)(=N)=O)c2)n1 | FLT4 | kinase activity | 10 µM, together with: 10 µM ATP | – | 30 |

Some of these lines once more:
| SMILES | target | assay | setting | how to read | remaining activity [%] |
| --- | --- | --- | --- | --- | --- |
| O=C(NC1CCC1)c1ccc2nc(-c3cccc(NS(=O)(=O)NCCN4CCCCC4)c3)cn2c1 | PRKX (Homo sapiens, UniProt P51817) | enzyme activity | 10 µM | – | 100 |
